Measured values pooled from the literature.
Each line is one published result; not all experiments were run side by side. ± marks the error that the study gave.

CNS(=O)(=O)Nc1nccc(Cc2c(C)c3ccc(Oc4ncccc4F)cc3oc2=O)c1F  IC50 (HCC1428; cell viability; 7 days): > 1000 nM
O=C(N/N=C/c1ccc(C[n+]2ccccc2)cc1)c1cncc(C(=O)N/N=C/c2ccc(C[n+]3ccccc3)cc2)n1  ΔTm (MYC parallel G4 DNA; FRET melting; 1 µM, DNA 0.2 µM, together with: duplex DNA competitor 10 µM): 4.3 ± 0.2 °C
Nc1ncc(-c2cc(-c3cnn(CC(F)(F)F)c3)ncc2F)nc1C(=O)NC1CNCC(F)C1 (stereo not shown)  remaining binding (IRAK4; KINOMEscan; 1 µM; reference: DMSO control): 90%
CCCC(=O)N1CCN(c2ccc(NC(=O)c3ccc([N+](=O)[O-])o3)cc2Cl)CC1  EC50 (Mus musculus; gene silencing, high-content imaging; LDR reporter GFP cells; confirmation, mean of two runs): 1260 nM
C[n+]1ccc(/C=N/NC(=O)c2cncc(C(=O)N/N=C/c3cc[n+](C)c4ccccc34)n2)c2ccccc21  ΔTm (MYC parallel G4 DNA; FRET melting; 1 µM, DNA 0.2 µM, together with: duplex DNA competitor 10 µM): 11.4 ± 0.5 °C
Oc1c(/N=N/c2ccccn2)ccc2ccccc12  Emax (Mus musculus; gene silencing, high-content imaging; LDR reporter GFP cells; 30 h, retest, mean of two runs): 128%
CN1CCCNC(=O)c2cccc(c2)C(=O)NCCCN(C)CCCNc2cccc3c2C(=O)c2cccc(c2C3=O)NCCC1  log2 fold change (SAS; RNA-Seq, item: C12orf66 mRNA; 1 µM, 6 h; reference: untreated cells): 2.31
C=CC(=O)Nc1cccc(Cn2ncc3cnc(Nc4cnn(CCOC)c4)nc32)c1  percent of control (ROS1 human; binding, KINOMEscan; 100 nM; lower = stronger binding): 61%
Cc1ncsc1-c1ccc(C(C)NC(=O)C2CC(O)CN2C(=O)C(NC(=O)CCCCCCCCCCN2CCCC(Nc3ncc(Cl)c(Nc4ccccc4S(=O)(=O)C(C)C)n3)C2)C(C)(C)C)cc1 (stereo not shown)  log2 fold change (22Rv1; RNA-seq, item: MBP; concentration not given; reference: DMSO): -2.25
C[n+]1cccc2cc(/C=N/NC(=O)c3cccc(C(=O)N/N=C/c4ccc5c(ccc[n+]5C)c4)c3)ccc21  ΔTm (hp2 hairpin duplex DNA; FRET melting; 1 µM): 0.2 °C
COC1CN([C@H]2CC[C@H]([C@@]3(C)Oc4c(Cl)cc(C(=O)NCc5c(SC)cc(C)[nH]c5=O)c(C)c4O3)CC2)C1  log2 fold change (RNA-seq, item: DAPK1; human, whole blood; dose not given, 24 h; reference: pretreatment baseline): 1.5
O=C(N/N=C/c1ccc(C[n+]2ccccc2)cc1)C(=O)N/N=C/c1ccc(C[n+]2ccccc2)cc1  ΔTm (hp2 hairpin duplex DNA; FRET melting; 1 µM, together with: ds26 10 µM): 0.7 ± 0.2 °C
C=CC(=O)N1[C@@H](c2ccc3c(c2)OCO3)c2[nH]c3ccccc3c2C[C@H]1C(=O)N1CCN(C)CC1  relative co-enrichment (human cyclin E1 wild type-3xFLAG:CDK2; co-IP with TMT proteomics, item: TUBB; concentration not given, P07437; reference: wild type DMSO): 112%

Some of these lines once more:
Oc1c(/N=N/c2ccccn2)ccc2ccccc12  Emax (Mus musculus; gene silencing, high-content imaging; LDR reporter GFP cells; 30 h, retest, mean of two runs): 128%
CN1CCCNC(=O)c2cccc(c2)C(=O)NCCCN(C)CCCNc2cccc3c2C(=O)c2cccc(c2C3=O)NCCC1  log2 fold change (SAS; RNA-Seq, item: C12orf66 mRNA; 1 µM, 6 h; reference: untreated cells): 2.31
